Measured values from different studies.
Protocols differ between the studies behind these lines. Numbers after ± are the reported error.
Organism: Plasmodium falciparum

CC(C)=CCC/C(C)=C/COCCNC1C2CC3CC(C2)CC1C3 (centres unmarked)
IC50 (parasite growth; 3D7; blood stage): 0.93 µg/mL

O=CCCCCCCCCCCCOCCCc1cccnc1
IC50 (anti-HRPII ELISA; W2 chloroquine-resistant; 72 h): 30600 ± 2700 nM

CCC(Cc1cnc2nc(N)nc(N)c2n1)c1ccc(C(=O)N[C@@H](CCC(=O)O)C(=O)O)cc1 (some centres unmarked)
IC50 (parasite proliferation, SYBR Green; 3D7; 72 h): 69 nM

CC(C)=CCC/C(C)=C/COCCOC1C2CC3CC(C2)CC1C3 (centres unmarked)
IC50 (parasite growth; 3D7; blood stage): 7.9 µg/mL

C[C@H]1[C@@H](O)O[C@@H]2O[C@@]3(C)CC[C@H]4[C@H](C)CC[C@@H]1[C@@]24OO3
IC50 (parasite growth, SYTOX green flow cytometry; K1 chloroquine-resistant; 48 h, ring stage): 34 ± 7.66 nM

CCCCNc1c(C(=O)OCC)c(C)nc2c1cnn2CC
IC50 (parasite proliferation, SYBR Green; 3D7; 72 h): 120 nM

CC(C)=CCC/C(C)=C/CNC(=O)COC1C2CC3CC(C2)CC1C3 (centres unmarked)
IC50 (parasite growth; 3D7; blood stage): 6.2 µg/mL

CC(CCCCCC(F)(F)F)CC1=C(O)C(=O)c2ccccc2C1=O (centres unmarked)
IC50 (parasite growth, [3H]hypoxanthine incorporation; D6 chloroquine-sensitive, human erythrocytes): 5 nM

C[C@@H]1CC[C@H]2[C@@H](C)C(=O)O[C@@H]3O[C@@]4(C)CC[C@@H]1[C@]32OO4
IC50 (parasite growth; K1; drug-resistant strain, blood stage): 10 nM

COc1cc(/C=C/c2ccc(/C=C/c3cc(OC)cc(=O)o3)cc2)oc(=O)c1
IC50 (parasite growth; K1; drug-resistant strain, blood stage): < 10000 nM

O=CCCCCCCCOCCCc1cccnc1
IC50 (anti-HRPII ELISA; W2 chloroquine-resistant; 72 h): 52400 ± 8900 nM

OC(c1cc(C(F)(F)F)nc2c(C(F)(F)F)cccc12)C1CCCCN1 (centres unmarked)
IC50 (parasite growth; K1, multidrug-resistant): 270 nM

CCN(CC)CCCC(C)Nc1ccnc2cc(Cl)ccc12 (centres unmarked)
IC50 (parasite growth): 11.4 to 12.1 nM

C[C@@H]1C[C@H](C)C[C@H](C)[C@@H](O)CC(=O)O[C@H]([C@@H]2CCC[C@H]2C(=O)O)C/C=C/C=C(/C#N)[C@H](O)[C@@H](C)C1
IC50 (parasite proliferation, SYBR Green; 3D7; 72 h): 83 nM

N=C(N)NCCCCC(=O)Nc1cc(C(F)(F)F)cc(NC(=O)c2cc(C(=O)Nc3cc(C(F)(F)F)cc(NC(=O)CCCCNC(=N)N)c3O[C@@H]3CCNC3)ncn2)c1O[C@@H]1CCNC1
IC50 (parasite growth, SYBR green I; INDO or Cam3.1 R539T, human red blood cells; 72 h): < 1000 nM

CCN(CC)CCOc1ccc2c(=O)c3cc(F)c(OC)cc3[nH]c2c1
IC50 (D6): > 116 nM

CC(C)=CCC/C(C)=C/CNCCOC1C2CC3CC(C2)CC1C3 (centres unmarked)
IC50 (parasite growth; 3D7; blood stage): 0.79 µg/mL

COC1=CC(c2ccc[nH]2)=N/C1=C\c1ccc(CCCCCCCCCCCN)[nH]1
IC50 (parasite growth; D6; 72 h): > 1700 nM

N=C(N)c1ncc(-c2ccc(-c3cnc(C(=N)N)nc3)cc2)cn1
IC50 (parasite growth; K1): ≤ 0.6 nM

CCN(CC)CCCC(C)Nc1ccnc2cc(Cl)ccc12 (centres unmarked)
IC50 (parasite growth, anti-HRPII; W2; blood stage): 300 ± 20 nM

N=C(N)c1ccc(-c2ccc(-c3ccc(C(=N)N)nc3)cc2)cc1
IC50 (parasite growth; K1): ≤ 0.6 nM

carbostyril 127
IC50 (parasite proliferation, SYBR Green; 3D7; 72 h): 85 nM

CN1CCc2cccc3c2[C@@H]1Cc1ccc(O)c(O)c1-3
IC50 (parasite growth; erythrocytes; 48 h): 4000 nM

CC[C@@H](C(=O)[C@@H](C)[C@@H](O)[C@H](C)CCc1ccc(C)c(O)c1C(=O)O)[C@H]1O[C@](CC)([C@H]2CC[C@](O)(CC)[C@H](C)O2)C[C@@H]1C
IC50 (parasite proliferation, SYBR Green; 3D7; 72 h): 200 nM

C[C@@H]1CC[C@H]2[C@@H](C)C(=O)O[C@@H]3O[C@@]4(C)CC[C@@H]1[C@]32OO4
IC50 (parasite growth, SYBR Green I; Dd2, chloroquine-resistant): 20.4 ± 2.4 nM

CC(C)/C=C/C1=C(O)C(=O)c2ccccc2C1=O
IC50 (parasite growth; W2; drug-resistant strain, blood stage): 12700 nM

Antimycin A
IC50 (oxygen consumption; K1): 16 ± 8 nM

C[C@]12CC[C@H](O)C[C@@]1(O)CC[C@@H]1[C@@H]2CC[C@]2(C)[C@@H](c3ccc(=O)oc3)CC[C@]12O
IC50 (parasite growth, imaging; W2; 48 h, drug-resistant strain, blood stage): < 2 µg/mL

CC(=O)Nc1c2sscc-2n(C)c1=O
IC50 (parasite growth; K1, multidrug-resistant): 5920 nM

CC(C)=CCC/C(C)=C/C[N+](C)(C)CCOC1C2CC3CC(C2)CC1C3.[I-] (centres unmarked)
IC50 (parasite growth; 3D7; blood stage): 0.08 µg/mL

CCCCCCC(C)CC1=C(O)C(=O)c2c(C)cccc2C1=O (centres unmarked)
IC50 (parasite growth, [3H]hypoxanthine incorporation; TM91C235 multidrug-resistant, human erythrocytes): 229 nM

CCN(CC)CCCC(C)Nc1ccnc2cc(Cl)ccc12 (centres unmarked)
IC50 (oxygen consumption; K1, compound-resistant): > 12000 nM

C[C@@H]1N[C@H](CCCCCCCCCCC2=C[C@@H](CCCCCCCCCC[C@@H]3CC[C@@H](O)[C@H](C)N3)[C@@H]3CCCN3C2)CC[C@H]1O.Cl.Cl
IC50 (parasite growth; W2; 72 h, drug-resistant strain, blood stage): 0.56 µg/mL

CCCCOc1ccc(CC(=O)NO)cc1
IC50 (parasite proliferation, SYBR Green; 3D7; 72 h): 3000 nM

CO/C(=C/C(N)=O)[C@H](C)[C@H](/C=C/c1csc(-c2csc([C@@H](C)/C=C/C=C/C(C)C)n2)n1)OC
IC50 (oxygen consumption; K1): 410 ± 280 nM

O=C(O)c1nn(Cc2ccc(Cl)cc2Cl)c2ccccc12
IC50 (3D7; 48 h, intraerythrocytic stage): 209000 ± 1.3 nM

c1ccc2c(c1)[I+]c1ccccc1-2
IC50 (3D7 stage III-V gametocytes): 170 nM

CC(=O)O[C@@H]1CC=C2CCN3Cc4cc5c(cc4[C@H]1[C@@H]23)OCO5
IC50 (parasite growth; DD2; drug-resistant strain, blood stage): 3300 nM

CCCOC(=O)C[N+](C)(C)CCOCCCCCCCCCCOCC[N+](C)(C)CC(=O)OCCC
IC50 (parasite proliferation, SYBR Green; 3D7; 72 h): 40 nM

CC1=C(O)C(=O)c2ccccc2C1=O
IC50 (parasite growth; W2; drug-resistant strain, blood stage): ≥ 266000 nM

O=C(C=Cc1ccc[nH]1)NCC(=O)NC12CC3CC(CC(C3)C1)C2
IC50 (parasite growth; 7G8, chloroquine-resistant): > 2500 nM

O=C(Nc1ccc(C2=NCCCN2)cc1)c1ccc(C(=O)Nc2ccc(C3=NCCCN3)cc2)cc1
IC50 (parasite proliferation, SYBR Green; 3D7; 72 h): 500 nM

CC(C)=CCC/C(C)=C/CNCCOc1ccccc1
IC50 (parasite growth; 3D7; blood stage): 14 µg/mL

CCCCCCC(C)CC1=C(O)C(=O)c2ccccc2C1=O (centres unmarked)
IC50 (parasite growth, [3H]hypoxanthine incorporation; D6 chloroquine-sensitive, human erythrocytes): 63 nM

Repeated from above:
CCCOC(=O)C[N+](C)(C)CCOCCCCCCCCCCOCC[N+](C)(C)CC(=O)OCCC
IC50 (parasite proliferation, SYBR Green; 3D7; 72 h): 40 nM

CC1=C(O)C(=O)c2ccccc2C1=O
IC50 (parasite growth; W2; drug-resistant strain, blood stage): ≥ 266000 nM

O=C(C=Cc1ccc[nH]1)NCC(=O)NC12CC3CC(CC(C3)C1)C2
IC50 (parasite growth; 7G8, chloroquine-resistant): > 2500 nM

O=C(Nc1ccc(C2=NCCCN2)cc1)c1ccc(C(=O)Nc2ccc(C3=NCCCN3)cc2)cc1
IC50 (parasite proliferation, SYBR Green; 3D7; 72 h): 500 nM
